Results gathered from unrelated publications.
Parts stem from different laboratories: compare values within a part only. Substitutions count along the parent as printed.

Study 1
Target: Sal-like protein 4, full length isoform A (SALL4, Homo sapiens, UniProt Q9UJQ4, residues 1-1053)
UniProt Q9UJQ4, sequence (whole entry, looked up): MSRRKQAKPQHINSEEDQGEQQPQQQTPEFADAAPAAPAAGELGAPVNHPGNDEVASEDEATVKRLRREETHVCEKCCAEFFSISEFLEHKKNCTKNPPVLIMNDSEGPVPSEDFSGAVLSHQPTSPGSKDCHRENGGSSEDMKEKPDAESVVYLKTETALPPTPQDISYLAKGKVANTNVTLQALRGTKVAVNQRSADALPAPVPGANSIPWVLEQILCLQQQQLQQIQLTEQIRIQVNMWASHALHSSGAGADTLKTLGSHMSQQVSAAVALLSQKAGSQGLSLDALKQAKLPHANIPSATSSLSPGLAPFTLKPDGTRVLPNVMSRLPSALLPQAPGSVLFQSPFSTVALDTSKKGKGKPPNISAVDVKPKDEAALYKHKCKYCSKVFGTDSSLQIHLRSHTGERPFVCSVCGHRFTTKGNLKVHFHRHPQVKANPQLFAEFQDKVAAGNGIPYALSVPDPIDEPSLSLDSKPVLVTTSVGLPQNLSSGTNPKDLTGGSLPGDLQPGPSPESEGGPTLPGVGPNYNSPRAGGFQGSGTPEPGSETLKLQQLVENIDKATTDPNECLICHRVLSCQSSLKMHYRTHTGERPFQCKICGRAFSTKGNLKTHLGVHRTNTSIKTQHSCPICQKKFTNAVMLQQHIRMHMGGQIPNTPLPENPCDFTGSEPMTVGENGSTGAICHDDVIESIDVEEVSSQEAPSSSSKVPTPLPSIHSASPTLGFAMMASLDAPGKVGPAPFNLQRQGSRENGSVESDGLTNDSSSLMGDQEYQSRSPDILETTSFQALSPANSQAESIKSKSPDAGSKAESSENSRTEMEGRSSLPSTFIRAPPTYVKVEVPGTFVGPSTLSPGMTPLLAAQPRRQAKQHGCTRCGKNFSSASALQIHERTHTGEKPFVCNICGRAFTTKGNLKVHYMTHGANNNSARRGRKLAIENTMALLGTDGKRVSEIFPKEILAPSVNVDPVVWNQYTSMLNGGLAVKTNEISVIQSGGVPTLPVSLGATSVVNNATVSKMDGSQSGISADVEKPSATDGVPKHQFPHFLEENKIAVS
Technique: universal PBM
Form: double-stranded DNA, one strand shown
Sample: in vitro
Tested at: 600 nM
Setting: 8-mer, flanks averaged, mean of replicates
Reading: higher = stronger binding
`ATCCTTTC` has an E-score of 0.169.
For `AATCTTCT`, the E-score was -0.0179.
`GCAACACA` has an E-score of 0.0134.
With `AGCTTTAT` the E-score was 0.0706.
The E-score of `CGCTCGAG` is reported as -0.169.
`AAATCGCT` has an E-score of 0.0352.
The E-score of `AGTTGGCC` is reported as -0.264.
For `CGTTCGAC`, the E-score was -0.152.

Study 2
Target: Histone acetyltransferase KAT6A, winged helix 1, GST fusion (KAT6A, Homo sapiens, UniProt Q92794, residues 1-85)
Technique: protein binding microarray
Form: double-stranded DNA, one strand shown
Sample: in vitro
Tested at: not given
Setting: 8-mer, flanks averaged, mean of 2 arrays, mostly near background
Relative to: not given
Reading: higher = stronger binding
Construct (chain): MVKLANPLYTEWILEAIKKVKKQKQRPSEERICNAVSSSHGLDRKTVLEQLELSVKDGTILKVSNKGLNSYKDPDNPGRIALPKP
The E-score of `GTGCCGCA` is reported as 0.247.
With `GCCCTGCA` the E-score was -0.0541.
`AGCGTTTG` has an E-score of -0.116.
With `ACATATTG` the E-score was -0.156.
The E-score of `ATGGTCAG` is reported as -0.119.
`ACTACTGG` gave an E-score of -0.215.

Study 3
Target: CCNB2, cyclin fold, Cln2 fusion (human)
Technique: yeast growth competition, sequencing
Sample: yeast
Setting: strong parent motif
Relative to: not given
Reading: higher = stronger binding
Parent: MICAL3 docking peptide (human); LQLRRQLSFSEDS; partner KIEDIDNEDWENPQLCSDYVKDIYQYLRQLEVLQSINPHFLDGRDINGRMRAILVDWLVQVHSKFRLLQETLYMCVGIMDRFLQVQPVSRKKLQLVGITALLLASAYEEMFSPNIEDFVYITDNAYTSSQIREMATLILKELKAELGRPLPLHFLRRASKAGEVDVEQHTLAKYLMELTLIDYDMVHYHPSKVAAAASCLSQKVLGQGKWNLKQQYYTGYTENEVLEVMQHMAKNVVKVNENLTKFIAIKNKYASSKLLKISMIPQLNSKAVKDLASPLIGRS
`F9V`: “normalised enrichment score” 0.178.
Under “normalised enrichment score”, `L3H` is recorded as 0.267.
`E11F` — result for “normalised enrichment score”: 1.52.
`D12A`: “normalised enrichment score” 3.4.
`S8I` — result for “normalised enrichment score”: 1.5.
Under “normalised enrichment score”, `Q2T` is recorded as 3.24.

Single results of other studies
`PhoQ, residues 284 288 289 292 302 303 NLGVHL` gave a fold induction of 0.0191 (PhoP, residues 12 14 15 18 19 VHSCL (Escherichia coli, UniProt P23836); Sort-seq, refers to: YFP reporter; E. coli; PhoQ-PhoP variant library, with: 10 µM Mg2+; relative to: high Mg2+ state, higher = stronger signaling).

For quick reference, copied from above (study 1):
`GCAACACA` has an E-score of 0.0134.
